# Results pooled from the literature.
# Every numbered part comes from another study and shows a few of its results, in no order. Changes are numbered by the printed parent chain.

# Study 1 — technique: RNA Bind-n-Seq; molecule type: RNA; sample: in vitro; concentration: 365 nM; reference: no-protein control; reading: higher = stronger binding
# Target: RNA binding protein fox-1 homolog 2, RRM domain, GST-SBP tag (RBFOX2, Homo sapiens, UniProt O43251-10, residues 100-194)
# Setting: natural RNA segment, single round, ends assumed
# Constant ends, left off below: GGGAGUUCUACAGUCCGACGAUC … UGGAAUUCUCGGGUGCCAA
# Construct (chain): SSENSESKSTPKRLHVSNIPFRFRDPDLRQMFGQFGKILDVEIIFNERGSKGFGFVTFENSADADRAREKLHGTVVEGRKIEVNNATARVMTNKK
Sequence,RBNS enrichment (R)
GUCACCCCAGACACCGCCCCUCACUUCAUGUACUGGACGGGAGCCGUCCGUCCAUCUGUCCCUGCUGGUCUCUGUCUAGAGAGUGCUGUUCGGGAUCUGCUCCUUCUGUC,0.421
GAACUUCAAGUAGCAGUUCAAAAGAUGUCAGUUUUUAAAAUUGUUUUUGUUGUUGUCUUGGCAGUUUUACUGAACCCUUUGCAUAAAGAACAAAAUAAAAGCUCGGCAUU,0.743
CAACAGAGGAUCGUUGAGAUUGAGCAGCGCUUGGUGAUCUCUCAGCAAACAACCCCUGCCCGUGGGCCAAUCUACUUGAAGUUACUCGGACAAAGACCCCAAAGUGGGGC,0.581
AGGCAUGAAGUCAGCCUCCCAAGGCAGGAUCUGUUGUUCAUUACCCCAUGGCAUCCUUUCAGGACAACCCCAGAGGGUGUUGUGAUGGGGAGCAGCAGGCCUGGGGCAAG,1.33
AUCUAAAAUUCUACUUUUAGAGUUGAAACAGAGUAAUAACUUAUCUAACCCUCUUUUCCUACAAAGGAGAAAGAUAAAAGGCACAAAGGUUACCGCCAAGGCCCGUCAGC,0.231
AGAGCGAGACUCCAUCUACCAGAUCCUUAUGACGCAGCUGAUGCCUGCCUUGGUUCCUACCACUCUGGUGUAGACAGAGGACUUUGUCCAAGUCUCACACUAAACAUGCC,0.624
GGCUUUUUUUUGUAGCCAGUCCUGUCCCUGGCCAUCCAUGUGAUGGUUUUGGAUGGAGUUAAACUUGAUGCCAGUGGGCAGUGCAUGUGGAAAGUAUCAGAGUAAGGCUC,8.8
CUGCAGGCACACAAAAUAAAAUAACUCGUGCUCAUUUGGAAUGUAACUCCUGGCACAGUGUUCCUAGACCCCCAGGCUGCAUGGGGGACAGGAGGGCCUGUAGAUAACCC,0.813
UGUGGCCUCAGCCAGGAGCGCACUGGCCAGUCUCCCAGGCCUGGAAGCACUGCAGUGUGCAGAGGCUCUCCUUGACCUUUCUACUUUUGACACGGGUCCCUGUUCGAGAA,0.299
UUUUCUGGCAACAUUUAAUGAUCCACAAAUGUAUAUAUAGAAAAUCUUCCUCCCCUUUCUCCCUUUCACUCCUUCCCCUGCGGACACAUUCUAGUUCCUGCAGGGCUUAU,0.365
GUUACCUGAUUUGUGCCUUAGGAUGCAGCGUGAAGCAGAAGUCCAUAUUGCAAUUAUGAUUUUAGAAGGAACUAAGCAUUUUACUCACACCCACAGCAGCAAGAAUGACC,3.03
ACUGAGGCAGAGGAGUAAGAGUGGUCCAUACACCCAAAUGCCAGCAAAUUGGCAUCUCAUUCUACCUCUAAACCACUGGGUUGGUAUGGGUAUGAAUGCUCAGAGCUCAC,0.576

# Study 2 — technique: RNA Bind-n-Seq; molecule type: RNA; sample: in vitro; concentration: not given; reference: input RNA pool; reading: higher = stronger binding
# Target: RING finger protein unkempt homolog, zinc fingers 1-6, GST-SBP tag (UNK, Homo sapiens, UniProt Q9C0B0, residues 30-357)
# Setting: RNA with constant flanks, human and mouse sites, ends assumed
# Constant ends, left off below: GGGAGUUCUACAGUCCGACGAUC … CAACAGAGGAUUGAGCAUCA
# Construct (chain): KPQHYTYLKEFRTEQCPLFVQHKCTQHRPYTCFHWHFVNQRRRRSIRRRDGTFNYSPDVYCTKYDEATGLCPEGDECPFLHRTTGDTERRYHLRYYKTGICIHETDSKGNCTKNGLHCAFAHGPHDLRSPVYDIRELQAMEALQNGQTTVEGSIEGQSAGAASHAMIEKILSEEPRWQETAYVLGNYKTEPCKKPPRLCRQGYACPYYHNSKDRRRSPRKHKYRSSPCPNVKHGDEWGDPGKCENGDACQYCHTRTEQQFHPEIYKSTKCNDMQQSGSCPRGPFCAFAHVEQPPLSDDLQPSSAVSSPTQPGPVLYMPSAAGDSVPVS
Sequence,bound/input enrichment [ratio]
ACAUGCACAGUGUAACUCCUGAAAGCUCUGACAAACCACCCUCAUUACCACCACUGAUGACAUCUCCAUUUGAUAAAAGGCAUGCCAGUCGCAUUUCACCAUCAUUAAGAUACAGUAACA,0.183
CCCCCUUUUAAAAUCAACAGGAAAUGUUUCAAAGGAGGGAUGAAAUGCUUCUUGGCUUCCUCAGCACUUGGCAAGGUAGACCUCAUAGCAACCUUGAAUAUGACUUUCUUUAGUCUCUAG,2.94
AGUUAAAGAAACUGUAACAUAUCUCUUAUAUAUUAAAAACGUUUAAAAGUUUUAAAGAGAAAUUGCAUUAAUACAGAUUGAAGUAUUUUAUUCUUUUUUGACUUGAAAAAUUAUAUUUCA,0.285
CUGGCAGUGGAGGCAUGUGUGAAUAUUGCCCAGCUUCUGCCACAGGAGGACCUGGAGGCCUUAGUGAUGCCCACCUUGCGACAGGCUGCUGAGGACAAGUCUUGGCGUGUUCGCUACAUG,0.0439
CAGGAGUCUCUGGGACAGUCCGAGAGUUUAUCUCCCCACAAGAUGACCAAGUUGUUACAGAGAUUUCCCAACAAAUCUCAUCUCAUCUGAAAAUGGAGAAAUAUUUUCAAUGAACUCUCA,0.0724
UUUCUGGUGCAGCGAGCCCGGGAACUAGUGCCCCAGGACCUGUGGGCAGCCAAGGCAUGGCUGAUCACGGCCCGCAGCCUCUACCCGGCCGACUUCAACAUCCAGUAUGAAAUGUACACC,0.0727
UUGCCCUGUGAGUUGAGUUACAUCCUUUGUAGCAACACAGCAUCCUCCCAGGCACCUGCACAGUUCUCCAUAGCAGCUUUGCUCCAAGAUACACAAACAUAGGCAAACCACAGGCUGUGU,0.334
GUGCGUGUGGGUGUGUGCGCGCGUGAGCACACACGCGUGUGUUGGGGGGGGUGGGGGGAUUGGGGUGGACUCAGGGUAUCUUGCCAGAGAUACCUGUUUUGAUGAGUACCUAUUUUGAUG,0.507
CGUCUUCUGUCUGCCUUCCCUGUCUCCCUAACUCCCCCUUCCUUCCCAUUGUCUUUUUGGUAGGUUGGAUUCUGGGGACUAAACUGCAGUUCCUCAUAAAAAUCCCCAUUCCUACCCUUU,0.552
GGUUCUCUGCCCCCACCCCCGGCCCUUUGUUUGACUUGCGUCGUCUGAUACUCAGUAUUGUAGCUUUUUGUCCGCAUGUUACUCCCUGUAAAUACGCUGUUAUACAUACUGUUAACACCC,0.44
GGAACUGAUAUAUUGACAGUUCUCACCGAAGUCCUUUUAUAAAGAAUUGCUACUCCAAUAUAUGGUCAGAUUAGAUGCAAGAAUAAAGCAGUUGUCCGAGUCUAAGUUUCUAUUUUAUUA,0.843

# Study 3 — technique: RNAcompete; molecule type: RNA; sample: in vitro; concentration: 20 nM; setting: 7-mer, probes averaged, single round; reference: mean of 7-mers; reading: higher = stronger binding
# Target: PABPC1L2, full length, GST fusion (mouse, UniProt A0ABA7IW68)
# Construct (chain): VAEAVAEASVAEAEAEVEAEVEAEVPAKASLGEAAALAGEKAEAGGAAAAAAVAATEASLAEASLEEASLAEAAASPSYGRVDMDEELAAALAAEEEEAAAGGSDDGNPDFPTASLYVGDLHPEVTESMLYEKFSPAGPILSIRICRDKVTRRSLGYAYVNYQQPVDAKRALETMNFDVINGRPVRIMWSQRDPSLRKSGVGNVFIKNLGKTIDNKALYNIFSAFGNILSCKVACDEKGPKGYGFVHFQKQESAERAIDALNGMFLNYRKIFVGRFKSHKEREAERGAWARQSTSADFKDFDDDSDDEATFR
Sequence,7-mer Z-score
ACGCGGC,-0.0663
CGUUAUG,-0.349
GUUCAAA,-0.0699
GUGUCUA,-0.251
UACGUCG,-0.391
AAGAAGU,0.35
AGGCUCG,-0.179
CGUUGCC,-0.24
GGCAUCG,-0.00108
UGGGGGC,0.646
GAUAUAA,0.133
GUGGACG,0.245
ACGGGCA,0.321
UACAACC,-0.182
GACAAGA,0.338
CAAUGGU,-0.0301
UUAGAUC,-0.117
GCUUAGG,-0.0518
CAAAAAG,19.2
CGUUGGC,-0.233
CCGAGAU,-0.128
UUCACGG,-0.173
CUAAGGA,-0.128
CCACAUU,-0.157
CCGCUCA,-0.369

# Study 4 — target: DBP, bZIP domain (human); technique: DHFR protein complementation; sample: yeast; reference: wild-type JUN-FOS pair; reading: higher = stronger binding
# Setting: single substitutions, most at no-binding floor
# Starting sequence: JUN, bZIP domain (human); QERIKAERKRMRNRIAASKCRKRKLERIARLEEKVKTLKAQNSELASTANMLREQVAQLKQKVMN; partner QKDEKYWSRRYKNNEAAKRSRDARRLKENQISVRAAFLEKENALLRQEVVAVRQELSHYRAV
Variant,binding fitness [natural log]
L38I,-1.37
R30M,-1.17
Q55H,-1.33
Q41F,-1.47
L52H,-1.51
L45H,-1.51
R30N,-1.17
T48D,-1.19
T48W,-1.31
K39F,-1.42
L52Y,-1.46
Q58P,-1.41
R30V,-1.38
A40L,-1.29
K34V,-1.32
I28F,-1.48
A40N,-1.63
L45W,-1.37
L45P,-1.5
A49K,-1.33
E33M,-1.61
I28P,-1.44
E44K,-1.48
E44V,-1.45
V56C,-1.12

# Study 5 — technique: protein binding microarray; molecule type: double-stranded DNA, one strand shown; sample: in vitro; concentration: not given; reference: not given; reading: higher = stronger binding
# Target: Histone acetyltransferase KAT6A, winged helix 1, GST fusion (KAT6A, Homo sapiens, UniProt Q92794, residues 1-85)
# Setting: 8-mer, flanks averaged, mean of 2 arrays, mostly near background
# Construct (chain): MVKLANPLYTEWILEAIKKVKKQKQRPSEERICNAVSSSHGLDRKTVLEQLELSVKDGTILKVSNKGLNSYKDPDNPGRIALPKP
Sequence,E-score
AATGACTC,-0.137
CTGCCTAA,-0.195
GATAGCAC,-0.0263
ATAACTCG,0.0283
CCTAGCAG,-0.167
GCGTTGCC,0.183
AAATCGCT,-0.00129
ATCACCGG,0.0964
CCAGCAGC,-0.171
AACGCTGG,0.0993
AGATCGGA,-0.0436
AATGCTCG,-0.195
CTTATTCC,-0.118
GCGATAGC,0.138
AGTTTCCG,0.15
ACGTAAGG,-0.0982
CAACCGCG,0.328
AGGGCGGA,0.183
CCATACGA,-0.15
AATCGGTG,-0.0526
ACTGAGTG,-0.209
GTCGTTAA,-0.0981
ACTGCACA,-0.277
GCGATGCA,0.093
AGATTACC,0.00991

# For quick reference, copied from above (study 3):
Sequence,7-mer Z-score
UUCACGG,-0.173
CCGAGAU,-0.128
UGGGGGC,0.646
GGCAUCG,-0.00108
GUUCAAA,-0.0699
UUAGAUC,-0.117
CAAAAAG,19.2
GCUUAGG,-0.0518
GUGUCUA,-0.251
GUGGACG,0.245
